Results gathered from unrelated publications.
Parts stem from different laboratories: compare values within a part only.

Study 1
Target: Centromere-binding protein 1, full length, N-terminal tag (CBF1, Saccharomyces cerevisiae, UniProt P17106, residues 1-351)
Sequence of UniProt P17106 (whole entry, looked up): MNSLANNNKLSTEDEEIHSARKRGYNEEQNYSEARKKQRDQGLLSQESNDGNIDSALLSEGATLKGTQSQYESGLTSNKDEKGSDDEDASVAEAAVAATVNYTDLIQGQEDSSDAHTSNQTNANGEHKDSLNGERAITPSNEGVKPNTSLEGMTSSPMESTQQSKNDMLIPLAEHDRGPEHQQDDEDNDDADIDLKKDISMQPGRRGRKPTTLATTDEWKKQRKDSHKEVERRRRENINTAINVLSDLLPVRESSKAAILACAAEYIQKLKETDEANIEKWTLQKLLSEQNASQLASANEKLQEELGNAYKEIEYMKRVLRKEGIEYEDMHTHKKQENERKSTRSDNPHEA
Method: protein-binding microarray
Molecule type: double-stranded DNA, one strand shown
Matrix: in vitro
Concentration: 0.8 µM
Notes: whole 60-bp probe, no competitor
Direction: higher = stronger binding
Shared flanks, not repeated: … GTCTTGATTCGCTTGACGCTGCTG
| Oligonucleotide | fluorescence intensity [a.u.] |
| --- | --- |
| CTACATCTGTACCACCACATGCTGTGTAGTTATTTC | 623 |
| CTATTGGGTTTACTTAGCGTGCTTTTTTTCTTCTTC | 504 |
| CTAAGGAAAAAAGGTGGCGTCGAAGACTGCTAGTTC | 531 |
| GAATTGCTATCGTTCAACACCACCTTATTTTCTTAG | 540 |
| CTATCTGAGTAGTGTCACGAACGAGGAAAAAGATTC | 631 |
| CTAAAACTCAACAGCTGCGTGATGAACGCGCTGTTC | 617 |

Study 2
Target: RING finger protein unkempt homolog, zinc fingers 1-6, GST-SBP tag (UNK, Homo sapiens, UniProt Q9C0B0, residues 30-357)
Sequence of UniProt Q9C0B0 (30-357, looked up): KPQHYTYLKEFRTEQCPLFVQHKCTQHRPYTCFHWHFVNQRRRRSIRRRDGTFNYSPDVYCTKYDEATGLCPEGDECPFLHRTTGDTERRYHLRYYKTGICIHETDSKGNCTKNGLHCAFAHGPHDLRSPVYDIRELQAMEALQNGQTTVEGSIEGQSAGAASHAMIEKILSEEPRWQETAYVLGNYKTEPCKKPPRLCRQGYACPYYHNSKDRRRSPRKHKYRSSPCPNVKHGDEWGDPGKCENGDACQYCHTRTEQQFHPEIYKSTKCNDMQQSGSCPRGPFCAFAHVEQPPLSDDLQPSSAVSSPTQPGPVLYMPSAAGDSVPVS
Method: RNA Bind-n-Seq
Molecule type: RNA
Matrix: in vitro
Concentration: not given
Notes: RNA with constant flanks, human and mouse sites, ends assumed
Baseline: input RNA pool
Direction: higher = stronger binding
Shared flanks, not repeated: GGGAGUUCUACAGUCCGACGAUC … CAACAGAGGAUUGAGCAUCA
| Oligonucleotide | bound/input enrichment |
| --- | --- |
| ACAUUUUCCUUCUGAUAUAUUAUACUUGUAAUGGGCGACAUGGCAAACAACUCAGUUGCUUACAGUGGUGUGAAAAACUCUUUGAAGGAAGCUAAUCAUGAUGGAGACUUUGGAAUUACG | 0.153 ratio |
| UUCAGAGUCACAGUUCCCUUUAUUUCACAUAAGCCCAAACUGAUAGACAGUAACGGUGUUUAGUUUUAUACUAUAUUUGUGCUAUUUAAUUCUUUCUAUUUUCACAAUUAUUAAAUUGUG | 4.12 ratio |
| AGAAGAAUAAAAAGAAGAGGAAAAAGGUUUUAUAUAAUGCCAAUAAAAAUGAUGAUUAUGACAAUGAAGAGAUCUUAACGUAUGAGGAAAUGUCACUUUAUCACCAGCCAGCAAAUAGGA | 0.959 ratio |
| ACGACACACCUUGCUGAUGGAGGUUACCGGCUGCUGGAGAAGUCUGGAGGCUUGCAGAUCAGCUUCGAUGUUUACCAGGCUGACGCUGUGGCGACGUUCCGAAAAAACAGCCCUGGCAAA | 0.117 ratio |
| UUUCGUUCCAAUUUUUGUGAAUUUAUUGGAGUCCUGAUUCGACAGUGUCAAUAUAGCAUAAUUUAUGAUGAAUAUAUGAUGGACACCGUAAUUUCCCUUUUGACUGGUUUGUCAGACUCC | 0.776 ratio |
| GCAGCCUCCAGCCCUGGUUGCCCAGCAGCCCCCACCACCACCUCAGCAACAGCAGCAGCAGCAGCAGCAGCAACAGCAACAGCAGCAGCAACGGGAAGGUGCCAGCCUAGGGCAGGGUCC | 0.165 ratio |

Study 3
Target: Histone acetyltransferase KAT6A, both winged helices, GST fusion (KAT6A, Homo sapiens, UniProt Q92794, residues 1-181)
Method: protein binding microarray
Molecule type: double-stranded DNA, one strand shown
Matrix: in vitro
Concentration: not given
Notes: 8-mer, flanks averaged, mean of 2 arrays, mostly near background
Baseline: not given
Direction: higher = stronger binding
Construct (chain): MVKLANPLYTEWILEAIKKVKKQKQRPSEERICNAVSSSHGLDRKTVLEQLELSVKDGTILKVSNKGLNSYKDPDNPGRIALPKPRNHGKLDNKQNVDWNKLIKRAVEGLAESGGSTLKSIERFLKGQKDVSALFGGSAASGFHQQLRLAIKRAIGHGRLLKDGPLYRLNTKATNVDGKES
| Oligonucleotide | E-score |
| --- | --- |
| TAATAAAA | 0.0406 |
| CGAGCTCC | -0.00853 |
| ACACCATA | -0.0233 |
| AAGGGCTC | -0.111 |
| AAGAAGAC | -0.139 |
| GAGCGCCA | 0.185 |

Further values, each from its own experiment
| Molecule | target | test | system | conditions | scale | measurement | value |
| --- | --- | --- | --- | --- | --- | --- | --- |
| PhoQ, residues 284 288 289 292 302 303 NLMGRA | PhoP, residues 12 14 15 18 19 LHATL (Escherichia coli, UniProt P23836) | Sort-seq, refers to: YFP reporter | E. coli | PhoQ-PhoP variant library, with: 10 µM Mg2+ | baseline: high Mg2+ state, higher = stronger signaling | fold induction | 3.56 |

For quick reference, copied from above (study 1):
| Oligonucleotide | fluorescence intensity [a.u.] |
| --- | --- |
| CTATTGGGTTTACTTAGCGTGCTTTTTTTCTTCTTC | 504 |
